Published values from different studies.
Every numbered part comes from another study and shows a few of its results, in no order. Changes are numbered by the printed parent chain.

Study 1
Target: CCNA2, cyclin fold, Cln2 fusion (human)
Method: yeast growth competition, sequencing
Sample: yeast
Setting: strong parent motif
Baseline: not given
Direction: higher = stronger binding
Starting sequence: CDKN1A docking peptide (human); SKACRRLFGPVDS; partner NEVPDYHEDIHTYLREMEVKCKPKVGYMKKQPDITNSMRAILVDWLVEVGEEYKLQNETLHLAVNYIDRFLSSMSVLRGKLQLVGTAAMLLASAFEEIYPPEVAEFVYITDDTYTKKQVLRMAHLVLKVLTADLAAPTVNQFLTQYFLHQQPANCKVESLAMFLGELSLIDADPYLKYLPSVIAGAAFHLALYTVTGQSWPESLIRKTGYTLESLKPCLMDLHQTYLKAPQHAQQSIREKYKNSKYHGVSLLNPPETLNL
| Variant | normalised enrichment score |
| --- | --- |
| SKAYRRLFGPVDS [C4Y] | 3.14 |
| SKACRRDFGPVDS [L7D] | -0.0215 |
| SKACRRLFGPVQS [D12Q] | 5.29 |
| SKAVRRLFGPVDS [C4V] | 5.25 |
| SKACRRNFGPVDS [L7N] | 0.678 |
| SKACRRLFGPVES [D12E] | 5.45 |
| SKACRRYFGPVDS [L7Y] | 0.878 |
| SPACRRLFGPVDS [K2P] | 5.01 |
| SKACRRLGGPVDS [F8G] | 0.482 |
| SKFCRRLFGPVDS [A3F] | 3.26 |
| SKACRRLFRPVDS [G9R] | 4.85 |
| SKACRRLFGPDDS [V11D] | 6.33 |
| SKACWRLFGPVDS [R5W] | 0.744 |
| SKACRRLFGPVCS [D12C] | 5 |
| SKADRRLFGPVDS [C4D] | 0.374 |
| SKACRRLFGPVYS [D12Y] | 5.29 |
| SKACRRLFGPYDS [V11Y] | 6.11 |
| SKACFRLFGPVDS [R5F] | 0.386 |
| SKACIRLFGPVDS [R5I] | 1.87 |
| SKAKRRLFGPVDS [C4K] | 6.06 |
| SKACRRLFIPVDS [G9I] | 5.37 |
| SKACRRSFGPVDS [L7S] | 0.225 |
| SKACRRLHGPVDS [F8H] | 0.732 |
| SKACRRLFLPVDS [G9L] | 5.7 |
| SNACRRLFGPVDS [K2N] | 5.49 |

Study 2
Target: Histone acetyltransferase KAT6A, winged helix 2, GST fusion (KAT6A, Homo sapiens, UniProt Q92794, residues 85-181)
Method: protein binding microarray
Form: double-stranded DNA, one strand shown
Sample: in vitro
Tested at: not given
Setting: 8-mer, flanks averaged, mean of 2 arrays, mostly near background
Baseline: not given
Direction: higher = stronger binding
Target sequence (chain): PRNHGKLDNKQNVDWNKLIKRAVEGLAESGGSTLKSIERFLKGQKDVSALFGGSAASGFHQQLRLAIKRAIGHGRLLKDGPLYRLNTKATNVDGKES
| Strand | E-score |
| --- | --- |
| GAAATTGC | 0.0519 |
| CGGGAAAC | 0.187 |
| CCAGCCGA | 0.117 |
| CATGATGC | 0.0127 |
| GTCACAGA | -0.0196 |
| GCATACCA | -0.169 |
| CACGGATA | 0.00417 |
| GCACCCGA | 0.213 |
| ATGCACAG | -0.042 |
| AGTAGGCA | 0.0709 |
| ACAACCCA | -0.0809 |
| ATCTGGTA | 0.0202 |
| AATTTAGG | 0.0523 |
| GGGCTAGA | -0.0781 |
| AGACCGTG | -0.00847 |
| CCGCGTCG | 0.214 |

Study 3
Target: RING finger protein unkempt homolog, zinc fingers 1-6, GST-SBP tag (UNK, Homo sapiens, UniProt Q9C0B0, residues 30-357)
Method: RNA Bind-n-Seq
Form: RNA
Sample: in vitro
Tested at: not given
Setting: RNA with constant flanks, human and mouse sites, ends assumed
Baseline: input RNA pool
Direction: higher = stronger binding
Constant ends, left off below: GGGAGUUCUACAGUCCGACGAUC … CAACAGAGGAUUGAGCAUCA
Construct (chain): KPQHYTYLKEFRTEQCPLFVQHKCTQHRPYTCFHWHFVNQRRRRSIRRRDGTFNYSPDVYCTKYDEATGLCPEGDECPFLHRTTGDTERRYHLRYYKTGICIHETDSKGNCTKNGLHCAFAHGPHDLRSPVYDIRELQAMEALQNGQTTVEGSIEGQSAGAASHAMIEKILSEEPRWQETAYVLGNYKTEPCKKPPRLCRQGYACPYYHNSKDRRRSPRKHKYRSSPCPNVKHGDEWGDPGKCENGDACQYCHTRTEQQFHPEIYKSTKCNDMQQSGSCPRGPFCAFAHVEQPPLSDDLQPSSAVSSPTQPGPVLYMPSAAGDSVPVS
| Strand | bound/input enrichment |
| --- | --- |
| AGUGUGCAGGAAUUCAUGACCUUUACAAGUCAACUGAUUGUGGAACGCUCGGGGAAAGGCAGCAGAGCUUCUGUCAAAGAACAAGAGUAUCUUUGCCAUGUCUACGUCCGGAGCGACAGU | 0.105 ratio |
| CCCGAGGCCGGCAACACCCUGCGCCGCUGGCGCUGCCACGUGCAAAGGUUCUUCUACCGCAUCUACGCCAGCCUGCGCAUCGAGGAGCUCUUCAGCAUCGUCCGAGACUUCCCAGACUCC | 0.0708 ratio |
| AAAGGGACUCAGAAGAUGACCCGCACCCCACGGAGUUCUGGGGGUGUGCCAAGGUCUUCUGGUAAACCUCACAAACACCUGCCUCCUGCAGCUCUGCAUCUGAUUGCCUAUUACAAAGAA | 0.144 ratio |
| GUAUCGGGGCGGGGUGUGUGUGUGCAUGGAAGAUGCCUGGGCUGUCUUUGCUAUAUGUAAAUAGAGCCAUUGGAUCUUUAUUUUUGAUUAAUUUGUUCUGAUUUUUUGGUUUGUUUUUUA | 0.832 ratio |
| CCCACCUUGGAACAUAGUAGCUUGUUCAGUGGUUCUUACUCCAGCCUUUCUCCAAACCCUCUUAAUUCUAGAGCAGUUGAAGACAUCUCUUCAUCGAGGACUAACCCCUACAGUUAUGCA | 0.508 ratio |
| GGGAAAAACAGCCUCUCCGUACUUUCACCAAAAAUUGGAAAUCUACUAUUUCUUUCCUACUUAGACAUCAAAGGCAAUCACUUUGAAGUCCUCCCUCCCGAGCUGGGAGACUGCCGGGCU | 0.397 ratio |
| AUUCAGAAUCAUUUUGUGGACGAAUAUGAUCCAACAAUAGAGGAUUCCUACAGGAAGCAAGUAGUAAUUGAUGGAGAAACCUGUCUCUUGGAUAUUCUCGACACAGCAGGUCAAGAGGAG | 1 ratio |
| ACAGACACGCUGGACUGUUCUUAAAUGCAAACAGCAAGACAUGUAUUCUUAAUAUGUAAUUUGUGAUAUUUGAAAAUAAUGUUUUAAGGUGUAUCCAAGCUACAUAUGUAAUGUAGGAGG | 0.221 ratio |
| GCCCGCGGCCACUUUUGCCUUCCCGGGGAGAUGUCCUUUGCUUCUCAGAUGUAAAUGCACUUUAAGUUUGUUAUUCAACAGUGAAAAUGAGUCAUACAGAGGUUAAAUUAAAAAUACCUU | 0.101 ratio |
| ACAGUGCAGUACAUACUAACCAUGGUUGACGAUAUGCUGCAGGAAAAUCACCAGCGUGUCAGCAUUUUCUUUGACUAUGCGAAACGAAGCAAGAGCACUGCCUGGCCAUACUUCCUGCCA | 0.152 ratio |
| AUAAUGCAGGAAUACCAGUUAGAACAGAAAGAUGUGAAUUCUCUUCUUAAAUAUUUUGUUACUUUUGAAGUCGAAAUCUUCCCUCCUGAAGACAAGAAAGCAAUACGAUCAAAAUGAAGA | 0.361 ratio |

Study 4
Target: RNA binding protein fox-1 homolog 2, RRM domain, GST-SBP tag (RBFOX2, Homo sapiens, UniProt O43251-10, residues 100-194)
Method: RNA Bind-n-Seq
Form: RNA
Sample: in vitro
Tested at: 365 nM
Setting: natural RNA segment, single round, ends assumed
Baseline: no-protein control
Direction: higher = stronger binding
Constant ends, left off below: GGGAGUUCUACAGUCCGACGAUC … UGGAAUUCUCGGGUGCCAA
Construct (chain): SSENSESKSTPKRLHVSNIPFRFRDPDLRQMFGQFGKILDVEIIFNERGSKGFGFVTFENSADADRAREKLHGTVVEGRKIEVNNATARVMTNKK
| Strand | RBNS enrichment (R) |
| --- | --- |
| UUGGUAACAGAUAAGAGUCUUUCCACUUCAAUCUUCGAAGGUGGCUACAAAGCACAUGCGCCCAAGUGGGAAUCCAAGGACUUUAGACCUAACAAAGUCUCCGAAACUAG | 0.4 |
| CUGAAAGCUGUGGACACCAAUGGCCAGGAUUCCUUCUCCCCUGGUUUUUGAGGAUCCCUGGGUCUUCUGAGACUGGCCAGGAGAGGGAUGGUGGGGCCAGUGGUUGUGUG | 0.216 |
| AUUAUCCAGUCGGUCCCAUCUAUCCACCUGGCUCCACAGUGCUGGUGGAAGGAGGGUAUGAUGCAGGUGCCAGAUUUGGAGCUGGGGCUACUGCUGGCAACAUUCCUGCU | 0.251 |
| AAGAAUAAAAACUCACUUGCACGAAUUGAAACGUAAAGAAAUGACACUUGUGAACGUGUGAACGUUAACACUGUAGUUGAUAGAUCUUAAGCUGCUAAUUGUUGAGAGAG | 0.886 |
| AGUAUUAAAAUAAGGCUGUCCCCUACAACCUUCUUAGUCACACAGGAUCCCUGUAGCCAAAACAGUAUAUGAUCCAGCUGCAGAGAGCAGACUGCUCUCAGCUUGCACAG | 0.368 |
| GAACCAGGAAAGGAAAUCCUCGCUUCCAUGGCUGCCAAAAGGACAGUGUUUCUGGCUCUCAGCCCUAAGGCCCUGCAAACUCUAACUUAUUUCCCAAUUAGUCUGUAUCU | 0.508 |
| CGCCCCUUCCCUCCAGGAUCAGAAGCAGCACCCACCCUUGCCAUGAUAAACAUUCCAUCCCCUGCUGUUCUGAUAAUGUGAAGUCAGAUGAGGGUUCCCAGGUUAUGUGG | 1.46 |
| UCUGUGCCACGUGUUUGUGCUGUGGUGUGUCCCCCUCUGUCCAGGCACUGAGAUACCAGCGAGGAGGCUCCAGAGGGCACUCUGCUUGUUAUUAGAGAUUACCUCCUGAG | 0.876 |
| UGGUUCCCCUGCCCUCUCCCAUCUUUGAUUGGCUUGGUAUUUGGAGCUUCUGUUAACAUUAUAGAGACUCCUAGGAUGUGUGUUCAUGGCAUUAUAGCUUUUGAAGAAAG | 0.367 |
| CUUCAUCAGAGCCAACCUUUGAUAUUCUUGGAGGGGACAGGAGGUGGGAACACAGAGGGAGUAGCCUGCGAAUGUGCCUCCAGUCAGUGGGAUACUUUCUGCACCACUCU | 0.938 |
| AGUGAAAAGUGAGAUCAGUAAUGAGCUGUGUUGUUAACAAUAUUAUCUGGUAAUAAUACCAUGCAAUAUAGCGUUGUAUACCAACUUAGUGCAUUUUAUACUGUAUUAAA | 0.35 |
| CUGACCUGCCACGCCCUACAUGGUCCCCUGUGUAGCUUGCUAGCCUUGGGGGCCUGUCACUUGCCAAAGUAACAUUCCUCUCUUGGGCCAAAAUGAAUGCUGACUCCUGA | 0.746 |

A few entries again (study 2):
| Strand | E-score |
| --- | --- |
| CACGGATA | 0.00417 |
| ATGCACAG | -0.042 |
| GTCACAGA | -0.0196 |
| CCGCGTCG | 0.214 |
| AGTAGGCA | 0.0709 |
| AGACCGTG | -0.00847 |
| AATTTAGG | 0.0523 |
| CGGGAAAC | 0.187 |
| GGGCTAGA | -0.0781 |
| ACAACCCA | -0.0809 |
